Measurements gathered from unrelated publications.
Each line is one published result; not all experiments were run side by side. ± gives the spread as reported. Values after ≈ are worked out from the molar mass of the structure shown.

Substance	assay	test system	conditions	scale	measurement	result
Cc1ccc(Nc2ccc3c(c2)C(c2ccccc2F)=NC(C)C(=O)N3)cc1 (stereo not drawn)	shake flask	PBS	24 h, pH 7.4	–	solubility	4.33 µM (≈ 1.62 µg/mL)
CCCCCOc1ccc(-c2ccc(-c3ccc(C(=O)N[C@H]4C[C@@H](O)[C@@H](O)NC(=O)[C@@H]5[C@@H](O)[C@@H](C)CN5C(=O)[C@H]([C@@H](C)O)NC(=O)[C@H]([C@H](O)[C@@H](O)c5ccc(O)cc5)NC(=O)[C@@H]5C[C@@H](O)CN5C(=O)[C@H]([C@@H](C)O)NC4=O)cc3)cc2)cc1	–	patients aged 5 to <sample A years, plasma	intravenous, loading 3.0 then 1.5 mg/kg daily	–	AUC(0-24) steady state median	80500 ng·h/mL
O=C(Nc1ccc(N2C(=O)[C@@H]3[C@H](C2=O)[C@@H]2C=C[C@H]3C2)c(Cl)c1)c1ccccn1	–	rat, systemic plasma	oral, 10 mg/kg, HCl salt	–	AUC(0-6 h)	0.858 µM·h
CCCCCOc1ccc(-c2cc(-c3ccc(C(=O)N[C@H]4C[C@@H](O)[C@@H](O)NC(=O)[C@@H]5[C@@H](O)[C@@H](C)CN5C(=O)[C@H]([C@H](O)CC(N)=O)NC(=O)[C@H]([C@H](O)[C@@H](O)c5ccc(O)c(OS(=O)(=O)O)c5)NC(=O)[C@@H]5C[C@@H](O)CN5C(=O)[C@H]([C@@H](C)O)NC4=O)cc3)no2)cc1	–	preterm neonates ≥1000 g, plasma	intravenous, 15 mg/kg/day, repeated dosing, mean	–	clearance	0.51 mL/min/kg
O[C@H]1CCCN[C@@H]1CCCn1cnc2c(Cl)c(Cl)ccc21	–	human, plasma	oral, 600 mg, single dose, healthy volunteers	–	MRT	9.79 h
Cc1ccncc1OC(=O)NCCCCCn1ccc2ccc(F)cc21	–	porcine liver S9 fraction	20 µM, 30 min, with: BNPP 1 mM	–	inhibition of degradation	45%
CC(=O)N[C@H](CCCCNC(=O)C(C)F)C(=O)N[C@@H](CS)C(=O)N[C@@H](CS)C(=O)N[C@@H](CCC(=O)O)C(=O)N[C@@H](Cc1c[nH]cn1)C(=O)N[C@H](Cc1ccccc1)C(=O)N[C@@H](CCCNC(=N)N)C(=O)N[C@@H](Cc1c[nH]c2ccccc12)C(=O)N[C@@H](CS)C(=O)N[C@@H](CCCNC(=N)N)C(=O)N1CCC[C@H]1C(=O)N[C@H](C(N)=O)C(C)C (stereo partly drawn) [fluorine-18 labelled]	–	C57BL/6 mice, male, B16-F10 tumour, stomach	intravenous, 2 h	–	tissue uptake	0.47 ± 0.24 %ID/g
N.O=C(O)C(F)(OC(F)(F)C(F)(F)C(F)(F)F)C(F)(F)F (stereo not drawn)	LC-MS	C57BL/6J mice, male, plasma	oral, 2 mg/L in drinking water, 12 weeks	–	plasma concentration	100 ± 40 ng/mL
CC[C@H](C)[C@H](NC(=O)[C@@H](N)CCCNC(=N)N)C(=O)N[C@H](C(=O)N1CCC[C@H]1C(=O)N[C@@H](C)C(N)=O)C(C)C	–	healthy volunteers, both sexes, plasma	intravenous infusion, 8.0 mg/kg, single ascending dose	–	Tmax	4.1 ± 0.4 min
eremomycin	pseudoallergic reaction	male CBA mouse	intravenous, maximum tolerated dose, with: concanavalin A	reference: control group	inflammation reaction index	42.7%
CC(C)C[C@@H]1NC(=O)[C@@H]2CSSC[C@@H](C(=O)NCC(N)=O)NC(=O)[C@H](Cc3ccccc3)NC(=O)CNC(=O)[C@H](CC(N)=O)NC(=O)[C@@H]3CCCN3C(=O)CNC(=O)[C@@H]3CSSC[C@H](NC(=O)[C@H](CO)NC(=O)[C@H]([C@@H](C)O)NC(=O)[C@@H]4CCCN4C(=O)[C@H](C)NC(=O)[C@H](Cc4c[nH]c5ccccc45)NC(=O)[C@H](CC(=O)O)NC(=O)CNC(=O)[C@H](CCCNC(=N)N)NC(=O)CNC(=O)[C@H](CCC(N)=O)NC(=O)[C@@H]4CCCN4C(=O)[C@@H](NC(=O)CNC(=O)c4ccc(F)cc4)CSSC[C@H](NC(=O)CNC(=O)[C@H](C)NC1=O)C(=O)N[C@@H](C(C)C)C(=O)N3)C(=O)N[C@@H](CO)C(=O)N[C@@H](CCC(N)=O)C(=O)N[C@@H](CC(=O)O)C(=O)N[C@@H](CO)C(=O)N[C@@H](CC(=O)O)C(=O)N2 [fluorine-18 labelled]	microPET imaging	nude mice, U-87 MG xenograft, tumour	intravenous, 4.44 MBq, 1 h	–	tumour uptake	1.46 ± 0.35 %ID/g
CCCCCCCCCCCCCCCCCC[N+](C)(C)C	in vitro-in vivo extrapolation	human	–	–	hepatic clearance	0.1 mL/h/g liver
